Experimental data collected from several papers.
Parts stem from different laboratories: compare values within a part only.

Set 1 — technique: RNA Bind-n-Seq; form: RNA; sample: in vitro; concentration: 365 nM; baseline: no-protein control; reading: higher = stronger binding
Target: RNA binding protein fox-1 homolog 2, RRM domain, GST-SBP tag (RBFOX2, Homo sapiens, UniProt O43251-10, residues 100-194)
Notes: natural RNA segment, single round, ends assumed
Construct (chain): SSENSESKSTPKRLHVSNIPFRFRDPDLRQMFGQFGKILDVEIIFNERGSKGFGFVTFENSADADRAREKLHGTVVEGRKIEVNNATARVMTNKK
Oligonucleotide | RBNS enrichment (R)
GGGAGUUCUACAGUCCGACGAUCUGUGAUGACUGUGGAAAGGCCUUCUCGCAGAGCUCCGACCUCAUCCGCCACCAGCGGACCCACGCAGCCGGCCGCCGUUAACCAGUCACGGGUGGGGAGGUGGUGUGCAGUGGAAUUCUCGGGUGCCAA | 0.24
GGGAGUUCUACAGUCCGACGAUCGGAAGUCUCAGAACCAGGAAGGAAACCCUGUGGAGGCUGCCCUUUGACCUUUGGACGCCACCUGUAAUCACUCUGGAUGGUGUCUGUGGAGUUCAGGUUUAUUUUCUAUUUGGAAUUCUCGGGUGCCAA | 0.31
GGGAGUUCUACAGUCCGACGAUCAUGGAUAAACAGAAACACUUAGAGGUGAGAAGGUCUGUCUUCAAGAUCCAAGGUAAGAUUGCCUUCAGUCUGAUGUUUGUUCUCAAGGACUUAUCCCCUACAAUAUUCUCUGGAAUUCUCGGGUGCCAA | 0.37
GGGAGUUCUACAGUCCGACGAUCCUGAGGAAACAAGAAAAGAAGAAGAGGCACAUGAAGUGUGCUUUUGGGAAUAGAAUUUAAAAUUGGAUUAAGAUUUUAUUUCCAGUUUUUUUUAUUUAUUUAUUUUUUUUUGGAAUUCUCGGGUGCCAA | 0.635
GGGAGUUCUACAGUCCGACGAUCAUUGAUCUCAGAUAAAAACUUGUGGACUUGGCUGACACUCUCCCUUGCCCUGAAAUCUCAAUGUCUAUUCAGUGAUAGUACAAGCACGUAGAUACCACUUAGUAUACUAUUGGAAUUCUCGGGUGCCAA | 0.862
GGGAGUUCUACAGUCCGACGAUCUUGAACAUCAAGAUCAAAUUAGUGGAUGCUGUCGUCUCUUAAAGCUGGUUUUAUUUGUCUCUGGUCCACAAGAGUGUUUUGGCAACUGCCUGGAGCUUGCAUGUUGGGACUGGAAUUCUCGGGUGCCAA | 7.37
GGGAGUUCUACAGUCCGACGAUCCCUAAGUCACAGGAUGAUUAUUAGGGAAAUGUCAUUGACACCUGAAAAUUACCUAUCCUGUAAAAAGACUGGUGAAAUUCAACAUGUUUUAAAUAAUUUAAUUGCAUUAUUGGAAUUCUCGGGUGCCAA | 0.316
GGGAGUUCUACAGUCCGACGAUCUUUUAUUUUUCUACUUUGAAUUGUAUACAUUUGGAAAGUACCCAAAUAAAUGAGAAGCUUCUAUCCUGAUUUGGGGAAGACAUUCCUUAGCGGAGGCUGUGCAGCCUCCCUGGAAUUCUCGGGUGCCAA | 0.382
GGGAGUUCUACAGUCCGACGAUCUUAUGGUCCCCAUACAGUGGUAUUUAACUUUUAAAGCAACUUUUAAGAAAACUCGACUUGUUUUUUGUUCAUUUUAAGUGUGUGGUACUAAAAAGACAUGUUAGACUUUUUGGAAUUCUCGGGUGCCAA | 0.362
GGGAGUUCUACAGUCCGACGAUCAGCUAGCUGUCUAGGCAGGCCUUGCCUCGAGCAACGCCCCUGCCCAGCCUCUGUGACAGUGACUCCCUCUCCCCUUGUACAUACUCUCACACAGGUUCCCCUUGUACAUAUGGAAUUCUCGGGUGCCAA | 0.464
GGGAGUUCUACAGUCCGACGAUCCUGUCAUGUAAUCAGCUAAUUCUCUGUGGAUGUUGCUGUAAAGUAUGCAUGUUCCUUUCAUGUGUAUUUAAUCAUGAUGUUUAAUUUUGCACACUUAUUUGUAAUGUUUCUGGAAUUCUCGGGUGCCAA | 0.536
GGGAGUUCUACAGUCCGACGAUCACUCUUCGGACUUCAGAGCACUUUAUGUAGUUGAAUAAACCCUAGAGGUUGAGGUGACUAAAAGGUUAGCCUCUCAUAACCCAGCCAUGGAAGUUUUGUUUACUAGGAGCUGGAAUUCUCGGGUGCCAA | 0.417

Set 2 — technique: protein binding microarray; form: double-stranded DNA, one strand shown; sample: in vitro; concentration: not given; baseline: not given; reading: higher = stronger binding
Target: Histone acetyltransferase KAT6A, winged helix 1, GST fusion (KAT6A, Homo sapiens, UniProt Q92794, residues 1-85)
Notes: 8-mer, flanks averaged, mean of 2 arrays, mostly near background
Residues (chain): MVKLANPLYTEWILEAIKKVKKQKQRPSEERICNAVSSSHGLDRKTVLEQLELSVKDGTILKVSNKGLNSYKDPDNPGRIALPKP
Oligonucleotide | E-score
CATAAGAC | 0.0737
ACCGGACC | 0.199
CATTTAAG | -0.295
ATGGGGCA | -0.193
CCAGACTC | -0.224
CTGTTACA | 0.069
TAAGCGCA | 0.22
GGTGGGAC | -0.0996
GGGGTCAC | 0.0231
CACGATCC | -0.107
ATGACCAG | -0.275
ATCCAGCC | -0.1
ATATGCTA | -0.0808
TAGAGCTA | -0.15
AAGCACCG | 0.132
CCGACGAG | 0.0712
ATGAGTGA | -0.207
CCGCTTTC | 0.241
TAGTCCAA | -0.082
GTCTTCTA | -0.161
GATCGGGA | 0.136
AGACCCAT | -0.0891
CGCCGAAA | 0.25
AAAGGCAC | 0.0586

Set 3 — technique: RNA Bind-n-Seq; form: RNA; sample: in vitro; concentration: 200 nM; notes: whole 134-nt RNA, ends assumed; together with: 150 mM LiCl; baseline: input library; reading: higher = stronger binding; each molecule: 7-deaza-guanosine replaces G
Target: Fragile X messenger ribonucleoprotein 1, C-terminal low-complexity region (Fmr1, Mus musculus, UniProt P35922)
Oligonucleotide | log2 enrichment
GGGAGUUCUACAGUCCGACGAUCCAAGUCCUGUGCUACACAUCGUAUGUACCGAAUCGGAAAAGGAAAAGGGGAAAAGGAAAGUAUUAUGUUACGCCGUUCGGAUCUGCACUUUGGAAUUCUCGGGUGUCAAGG | -1.09
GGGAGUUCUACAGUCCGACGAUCUCCUGUGCUACACAUCGUAUGUACCGAAUCGGGGUUUGGGGAAAAAAAGGGGAAAGGGGAAAGUAUUAUGUUACGCCGUUCGGAUCUGCAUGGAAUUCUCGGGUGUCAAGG | -0.544
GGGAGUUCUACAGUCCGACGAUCUCCUGUGCUACACAUCGUAUGUACCGAAUCGGGGAAAAAAAGGGGUUUGGGGAAAGGGGAAAGUAUUAUGUUACGCCGUUCGGAUCUGCAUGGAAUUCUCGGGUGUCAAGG | -1.47
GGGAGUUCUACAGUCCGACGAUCGUCCUGUGCUACACAUCGUAUGUACCGAAUCGGGUUUUUGGGGUUUUUGGGGUUUUUGGAAAGUAUUAUGUUACGCCGUUCGGAUCUGCAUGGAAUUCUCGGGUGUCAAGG | -0.795
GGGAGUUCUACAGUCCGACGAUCAGUCCUGUGCUACACAUCGUAUGUACCGAAUCGGUUUUUGGGGUUUUUGGGUUUUUGGAAAGUAUUAUGUUACGCCGUUCGGAUCUGCACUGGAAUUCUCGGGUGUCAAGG | -0.939
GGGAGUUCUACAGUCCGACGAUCUCAAGUCCUGUGCUACACAUCGUAUGUACCGAAUCGGGAGGGUUUGGGUUUGGGAAAGUAUUAUGUUACGCCGUUCGGAUCUGCACUUCCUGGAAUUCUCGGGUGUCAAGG | -0.908
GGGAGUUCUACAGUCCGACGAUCAGUCCUGUGCUACACAUCGUAUGUACCGAAUCGGAAAAAGGGGAAAAAGGGAAAAAGGAAAGUAUUAUGUUACGCCGUUCGGAUCUGCACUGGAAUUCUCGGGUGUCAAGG | -0.849
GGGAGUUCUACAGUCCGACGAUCCUCAAGUCCUGUGCUACACAUCGUAUGUACCGAAUCGGGGCGGGGCGGGCGGGGAAAGUAUUAUGUUACGCCGUUCGGAUCUGCACUUCCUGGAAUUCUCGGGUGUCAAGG | -0.58
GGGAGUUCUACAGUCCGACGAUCUGCCUCGGGAGGAGCUGUUUGUGACAUCCAAGCUGUGGAACACCAAGCACCACCCCGAGGAUGUGGAGCCUGCCCUCCGGAAGACUCUGGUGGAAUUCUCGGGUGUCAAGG | -1.22
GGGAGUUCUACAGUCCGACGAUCACCAUGCAGGUGGGCAUCGUUGGGAAGUGGGGCAAGGGGGGGAUAGGGAGGGGGGUAACACUUUGGGAACAGGUGGUCCCAGGUCGUUUCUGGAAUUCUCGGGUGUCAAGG | 1.43
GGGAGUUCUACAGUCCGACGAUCUAAUUUAGAUCUUAAAGAAAAAGUGGAGCCUGAGGUUCUCAGCACUGAUACCCAAACUUCCCCAGAGCCAGGCACAAGGAUGAACAUUCUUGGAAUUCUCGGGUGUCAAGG | 0.742

Set 4 — technique: aptamer microarray, sandwich; form: DNA with 2'F-ANA; sample: in vitro; concentration: 200 nM; together with: Cy3 exosite-II aptamer, 400 nM; reading: higher = stronger binding; oligonucleotide: GGTTGGTGTGGTTGG
Target: Prothrombin, mature alpha-thrombin (F2, Homo sapiens, UniProt P00734)
Notes: whole 15-mer aptamer, many near background
Modification | mean fluorescence intensity [a.u.]
2'F-ANA at 2 6 10 11 12 13 14 15 | 110
2'F-ANA at 6 13 14 | 170
2'F-ANA at 10 12 15 | 246
2'F-ANA at 1 2 4 6 8 9 10 12 15 | 76.4
2'F-ANA at 1 4 6 7 8 9 11 13 15 | 81.7
2'F-ANA at 1 7 9 13 15 | 139
2'F-ANA at 1 2 3 11 12 13 14 15 | 89.4
2'F-ANA at 5 6 10 11 | 46.9
2'F-ANA at 1 3 4 5 6 7 8 9 10 12 14 15 | 48.8
2'F-ANA at 1 5 7 8 11 13 15 | 51.6
2'F-ANA at 1 5 6 9 10 11 12 | 47.6
2'F-ANA at 1 3 4 5 6 7 11 12 | 99.8
2'F-ANA at 2 4 5 11 12 13 | 84.9
2'F-ANA at 1 2 3 4 5 7 10 11 12 | 50.8
2'F-ANA at 5 9 10 11 12 13 14 15 | 47.6
2'F-ANA at 4 6 7 11 14 | 83.2
2'F-ANA at 2 3 6 9 11 14 15 | 319
2'F-ANA at 2 4 5 6 7 12 | 136
2'F-ANA at 4 5 10 11 | 54
2'F-ANA at 2 6 15 | 461
2'F-ANA at 1 2 4 6 8 9 10 12 13 14 | 50.5
2'F-ANA at 1 3 4 12 15 | 461
2'F-ANA at 4 8 9 10 12 13 15 | 88.2

Some of these lines once more (set 2):
Oligonucleotide | E-score
ATCCAGCC | -0.1
AAAGGCAC | 0.0586
AGACCCAT | -0.0891
GTCTTCTA | -0.161
ATGGGGCA | -0.193
CCGACGAG | 0.0712
ATGACCAG | -0.275
CTGTTACA | 0.069
